{"data": "Measured values collected from several papers", "method": "steady-state kinetics", "B1": "enzyme A178R/D177A/M179S/P184R (Levilactobacillus brevis, UniProt Q03Q85); chain MKVTVVGCTHAGTFAIKQILAEHPDAEVTVYERNDVISFLSCGIALYLGGKVADPQGLFYSSPEELQKLGANVQMNHNVLAIDPDQKTVTVEDLTNHAQTTESYDKLVMTSGSWPIVPKIPGIDSDRVKLCKNWAHAQALIEDAKEAKRITVIGAGYIGAELAEAYSTTGHDVTLIARSARVMRKYFDADFTDVIEQDYRDHGVQLALGETVESFTDSATGLTIKTDKNSYETDLAILCIGFRPNTDLLKGKVDMAPNGAIITDDYMRSSNPDIFAAGDSAAVHYNPTHQNAYIPLATNAVRQGILVGKNLVKPTVKYMGTQSSSGLALYDRTIVSTGLTLAAAKQQGLNAEQVIVEDNYRPEFMPSTEPVLMSLVFDPDTHRILGGALMSKYDVSQSANTLSVCIQNENTIDDLAMVDMLFQPNFDRPFNYLNILAQAAQAKVAQSVNA", "B2": "tsaM1 F253S/H255G/M230N/R216A/S234V/S257H/T232I/Y220I (Comamonas testosteroni, UniProt P94679); chain MFIRNCWYVAAWDTEIPAEGLFHRTLLNEPVLLYRDTQGRVVALENRCCHRSAPLHIGRQEGDCVRCLYHGLKFNPSGACVEIPGQEQIPPKTCIKSYPVVERNRLVWIWMGDPARANPDDIVDYFWHDSPEWRMKPGYIHYQANYKLIVDNLLDFTHLAWVHPTTLGTDSAASLKPVIERDTTGTGKLTITRWYLNDDMSNLHKGVAKFEGKADAWQIIQWSPPALLRNDIGVAPTGTGAPEGRRVPEAVQSRGTHIQTPETETTSHYWFCQARNFDLDDEALTEKIYQGVVVAFEEDRTMIEAHEKILSQVPDRPMVPIAADAGLNQGRWLLDRLLKAENGGTAP", "B3": "LYS1 C205S/K99M (Saccharomyces cerevisiae, UniProt P38998); chain MAAVTLHLRAETKPLEARAALTPTTVKKLIAKGFKIYVEDSPQSTFNINEYRQAGAIIVPAGSWKTAPRDRIIIGLKEMPETDTFPLVHEHIQFAHCYMDQAGWQNVLMRFIKGHGTLYDLEFLENDQGRRVAAFGFYAGFAGAALGVRDWAFKQTHSDDEDLPAVSPYPNEKALVKDVTKDYKEALATGARKPTVLIIGALGRSGSGAIDLLHKVGIPDANILKWDIKETSRGGPFDEIPQADIFINCIYLSKPIAPFTNMEKLNNPNRRLRTVVDVSADTTNPHNPIPIYTVATVFNKPTVLVPTTAGPKLSVISIDHLPSLLPREASEFFSHDLLPSLELLPQRKTAPVWVRAKKLFDRHCARVKRSSRL", "B4": "Ma-WS/DGAT A144F (Marinobacter nauticus); chain MTPLNPTDQLFLWLEKRQQPMHVGGLQLFSFPEGAPDDYVAQLADQLRQKTEVTAPFNQRLSYRLGQPVWVEDEHLDLEHHFRFEALPTPGRIRELLSFVSAEHSHLMDRERPMWEVHLIEGLKDRQFALYTKVHHSLVDGVSFMRMATRMLSENPDEHGMPPIWDLPCLSRDRGESDGHSLWRSVTHLLGLSGRQLGTIPTVAKELLKTINQARKDPAYDSIFHAPRCMLNQKITGSRRFAAQSWCLKRIRAVCEAYGTTVNDVVTAMCAAALRTYLMNQDALPEKPLVAFVPVSLRRDDSSGGNQVGVILASLHTDVQEAGERLLKIHHGMEEAKQRYRHMSPEEIVNYTALTLAPAAFHLLTGLAPKWQTFNVVISNVPGPSRPLYWNGAKLEGMYPVSIDMDRLALNMTLTSYNDQVEFGLIGCRRTLPSLQRMLDYLEQGLAELELNAGL", "B5": "PduO F112A (Limosilactobacillus reuteri, UniProt Q50EJ2); chain MKIYTKNGDKGQTRIIGKQILYKNDPRVAAYGEVDELNSWVGYTKSLINSHTQVLSNELEEIQQLLFDCGHDLATPADDERHSFKFKQEQPTVWLEEKIDNYTQVVPAVKKAILPGGTQLASALHVARTITRRAERQIVQLMREEQINQDVLIFINRLSDYFFAAARYANYLEQQPDMLYRNSKDVFR", "B6": "HGXPRT (Trypanosoma cruzi, UniProt Q4DRC3); chain MISSQQAMVHVVSRNAEGVIVVDGKAYPMAEELVATESVIQRSIKAVAKQIADFYRPLSHRDTHGGGGVAPISDENPLIIISVLKGSYIFTADMVRYLGDYGLPHVVDFLRVASYRGTSSTNKMKLLAETQFKALRGKHVLILEDIVDSGKTLRYILDKVQREHQPATLKVCVLADKPGGRRVTMQPDFVCLTVPNKYVIGYGFEVNDRFRCFRHIFTLRPGEARRYPAHL", "B7": "hflX K210A/N207A (Escherichia coli, UniProt P25519); chain MFDRYDAGEQAVLVHIYFTQDKDMEDLQEFESLVSSAGVEALQVITGSRKAPHPKYFVGEGKAVEIAEAVKATGASVVLFDHALSPAQERNLERLCECRVIDRTGLILDIFAQRARTHEGKLQVELAQLRHLATRLVRGWTHLERQKGGIGLRGPGETQLETDRRLLRNRIVQIQSRLERVEKQREQGRQSRIKADVPTVSLVGYTAAGASTLFNRITEARVYAADQLFATLDPTLRRIDVADVGETVLADTVGFIRHLPHDLVAAFKATLQETRQATLLLHVIDAADVRVQENIEAVNTVLEEIDAHEIPTLLVMNKIDMLEDFEPRIDRDEENKPNRVWLSAQTGAGIPQLFQALTERLSGEVAQHTLRLPPQEGRLRSRFYQLQAIEKEWMEEDGSVSLQVRMPIVDWRRLCKQEPALIDYLI", "note": "Compare with care: the assays were run in different laboratories. ± gives the spread as reported.", "sequence of UniProt P19337 (whole entry, looked up)": "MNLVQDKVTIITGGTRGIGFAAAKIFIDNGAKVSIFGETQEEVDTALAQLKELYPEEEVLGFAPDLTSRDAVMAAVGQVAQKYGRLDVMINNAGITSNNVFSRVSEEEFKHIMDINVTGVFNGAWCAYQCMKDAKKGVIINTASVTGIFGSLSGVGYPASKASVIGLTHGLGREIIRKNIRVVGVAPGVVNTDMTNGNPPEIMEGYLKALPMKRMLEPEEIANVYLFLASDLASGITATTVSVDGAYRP", "sequence of UniProt P22106 (whole entry, looked up)": "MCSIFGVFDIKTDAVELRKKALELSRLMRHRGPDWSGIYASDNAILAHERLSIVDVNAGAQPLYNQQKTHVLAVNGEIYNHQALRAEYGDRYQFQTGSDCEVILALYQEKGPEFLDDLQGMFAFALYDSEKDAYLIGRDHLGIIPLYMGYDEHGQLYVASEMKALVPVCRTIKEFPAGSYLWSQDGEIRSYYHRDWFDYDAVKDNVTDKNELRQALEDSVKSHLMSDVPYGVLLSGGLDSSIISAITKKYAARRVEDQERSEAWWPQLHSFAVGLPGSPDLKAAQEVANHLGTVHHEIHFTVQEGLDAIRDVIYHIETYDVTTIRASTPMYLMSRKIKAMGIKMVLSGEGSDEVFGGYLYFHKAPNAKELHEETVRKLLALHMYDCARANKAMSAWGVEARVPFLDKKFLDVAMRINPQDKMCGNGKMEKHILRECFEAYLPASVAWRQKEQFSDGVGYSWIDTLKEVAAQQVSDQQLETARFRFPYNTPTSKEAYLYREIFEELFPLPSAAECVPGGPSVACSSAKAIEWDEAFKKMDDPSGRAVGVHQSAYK"}
{"Substance": "B1 (enzyme A178R/D177A/M179S/P184R)", "substrate": "NC(=O)C1=CN([C@@H]2O[C@H](COP(=O)(O)OP(=O)(O)OC[C@H]3O[C@@H](n4cnc5c(N)ncnc54)[C@H](O)[C@@H]3O)[C@@H](O)[C@H]2O)C=CC1", "setting": "pH 7.5, 37 °C, per site", "kcat [s⁻¹]": "7.9 ± 1"}
{"Substance": "B2", "substrate": "COc1cc(C(=O)O)ccc1O", "setting": "apparent, with: NADH 1 mM", "kcat [s⁻¹]": "0.0617 ± 0.00333"}
{"Substance": "CPR (Sorghum bicolor, UniProt C5YJG8)", "substrate": "NC(=O)C1=CN([C@@H]2O[C@H](COP(=O)(O)OP(=O)(O)OC[C@H]3O[C@@H](n4cnc5c(N)ncnc54)[C@H](OP(=O)(O)O)[C@@H]3O)[C@@H](O)[C@H]2O)C=CC1", "setting": "pH 7.4, 25 °C", "kcat [s⁻¹]": "15.8 ± 0.492"}
{"Substance": "B3 (LYS1 C205S/K99M)", "substrate": "O=C(O)CCC(=O)C(=O)O", "setting": "pH 7.2, 25 °C, with: NADH and Lys", "kcat [s⁻¹]": "68 ± 4"}
{"Substance": "B4 (Ma-WS/DGAT A144F)", "substrate": "CCCCCC(=O)SCCNC(=O)CCNC(=O)[C@H](O)C(C)(C)COP(=O)(O)OP(=O)(O)OC[C@H]1O[C@@H](n2cnc3c(N)ncnc32)[C@H](O)[C@@H]1OP(=O)(O)O", "setting": "pH 7.5, 25 °C, NaCl 300 mM, apparent, with: 1-hexanol 4 mM", "kcat [s⁻¹]": "0.85 ± 0.03"}
{"Substance": "B5 (PduO F112A)", "substrate": "Nc1ncnc2c1ncn2[C@@H]1O[C@H](COP(=O)(O)OP(=O)(O)OP(=O)(O)O)[C@@H](O)[C@H]1O", "setting": "pH 8, 37 °C, anoxic, with: cob(I)alamin", "kcat [s⁻¹]": 0.0056}
{"Substance": "PhnA (Sinorhizobium meliloti, UniProt Q92UV8)", "substrate": "O=C(O)CP(=O)(O)O", "setting": "pH 7.5, 30 °C, with: Zn2+ 10 µM", "kcat [s⁻¹]": "1.16 ± 0.03"}
{"Substance": "BaiA2 (Clostridium scindens, UniProt P19337)", "substrate": "C[C@H](CCC(=O)SCCNC(=O)CCNC(=O)[C@H](O)C(C)(C)COP(=O)(O)OP(=O)(O)OC[C@H]1O[C@@H](n2cnc3c(N)ncnc32)[C@H](O)[C@@H]1OP(=O)(O)O)[C@H]1CC[C@H]2[C@@H]3CC[C@@H]4C[C@H](O)CC[C@]4(C)[C@H]3C[C@H](O)[C@]12C", "setting": "pH 8.7, 37 °C, with: NAD+", "kcat [s⁻¹]": 0.158}
{"Substance": "B6 (HGXPRT)", "substrate": "Nc1nc2nc[nH]c2c(=O)[nH]1", "setting": "pH 8.3, 37 °C, apparent, with: PRPP", "kcat [s⁻¹]": "0.46 ± 0.01"}
{"Substance": "alanine aminopeptidase (Neisseria meningitidis, UniProt Q9JYV4)", "substrate": "CC[C@H](N)C(=O)Nc1ccc2c(CC(N)=O)cc(=O)oc2c1", "setting": "pH 7.5, 37 °C", "kcat [s⁻¹]": "13.8 ± 0.1"}
{"Substance": "B7 (hflX K210A/N207A)", "substrate": "Nc1nc2c(ncn2[C@@H]2O[C@H](COP(=O)(O)OP(=O)(O)OP(=O)(O)O)[C@@H](O)[C@H]2O)c(=O)[nH]1", "setting": "pH 8, 37 °C, with: MgCl2 5 mM, NaCl 200 mM", "kcat [s⁻¹]": "0.00783 ± 0.0015"}
{"Substance": "Ptb (Listeria monocytogenes, UniProt Q8Y7B7)", "substrate": "CCC(CC)C(=O)SCCNC(=O)CCNC(=O)[C@H](O)C(C)(C)COP(=O)(O)OP(=O)(O)OC[C@H]1O[C@@H](n2cnc3c(N)ncnc32)[C@H](O)[C@@H]1OP(=O)(O)O", "setting": "pH 7.5, 25 °C, apparent", "kcat [s⁻¹]": "101 ± 11"}
{"Substance": "asnB (Escherichia coli, UniProt P22106)", "substrate": "N[C@@H](CC(=O)O)C(=O)O", "setting": "pH 8, 37 °C, apparent, with: L-glutamine 20 mM", "kcat [s⁻¹]": "0.67 ± 0.02"}
{"note": "For quick reference, copied from above:"}
{"Substance": "B5 (PduO F112A)", "substrate": "Nc1ncnc2c1ncn2[C@@H]1O[C@H](COP(=O)(O)OP(=O)(O)OP(=O)(O)O)[C@@H](O)[C@H]1O", "setting": "pH 8, 37 °C, anoxic, with: cob(I)alamin", "kcat [s⁻¹]": 0.0056}
{"Substance": "alanine aminopeptidase (Neisseria meningitidis, UniProt Q9JYV4)", "substrate": "CC[C@H](N)C(=O)Nc1ccc2c(CC(N)=O)cc(=O)oc2c1", "setting": "pH 7.5, 37 °C", "kcat [s⁻¹]": "13.8 ± 0.1"}
